Results from different studies.
Protocols differ between the studies behind these lines. ± marks the error that the study gave.
Organism: Candida albicans

| Compound | assay | system | conditions | endpoint | result |
| --- | --- | --- | --- | --- | --- |
| CC[C@H](C)[C@H](NC(=O)CN)C(=O)NCC(=O)N[C@@H](C)C(=O)N[C@H](C(=O)N[C@@H](CC(C)C)C(=O)N[C@@H](CCCCN)C(=O)N[C@H](C(=O)N[C@@H](CC(C)C)C(=O)N[C@H](C(=O)N[C@H](C(=O)NCC(=O)N[C@@H](CC(C)C)C(=O)N1CCC[C@H]1C(=O)N[C@@H](C)C(=O)N[C@@H](CC(C)C)C(=O)N[C@H](C(=O)N[C@@H](CO)C(=O)N[C@@H](Cc1c[nH]c2ccccc12)C(=O)N[C@H](C(=O)N[C@@H](CCCCN)C(=O)N[C@@H](CCCNC(=N)N)C(=O)N[C@@H](CCCCN)C(=O)N[C@@H](CCCNC(=N)N)C(=O)N[C@@H](CCC(N)=O)C(=O)N[C@@H](CCC(N)=O)C(N)=O)[C@@H](C)CC)[C@@H](C)CC)[C@@H](C)O)[C@@H](C)O)C(C)C)C(C)C | broth microdilution | ATCC 90028 | 28 °C | MIC | 3.1 µM |
| CC[C@H](C)[C@H](NC(=O)CN)C(=O)NCC(=O)N[C@@H](C)C(=O)N[C@H](C(=O)N[C@@H](CC(C)C)C(=O)N[C@@H](CCCCN)C(=O)N[C@H](C(=O)N[C@@H](CC(C)C)C(=O)N[C@H](C(=O)N[C@H](C(=O)NCC(=O)N[C@@H](CC(C)C)C(=O)N1CCC[C@H]1C(=O)N[C@@H](C)C(=O)N[C@@H](CC(C)C)C(=O)N[C@H](C(=O)N[C@@H](CO)C(=O)N[C@@H](Cc1c[nH]c2ccccc12)C(=O)N[C@H](C(=O)N[C@@H](CCCCN)C(=O)N[C@@H](CCCNC(=N)N)C(=O)N[C@@H](CCCCN)C(=O)N[C@@H](CCCNC(=N)N)C(=O)N[C@@H](CCC(N)=O)C(=O)N[C@@H](CCC(N)=O)C(N)=O)[C@@H](C)CC)[C@@H](C)CC)[C@@H](C)O)[C@@H](C)O)C(C)C)C(C)C | broth microdilution | ATCC 90028 | 20 h, 37 °C | MIC | 7.8 ± 1.8 µg/mL |
| CC(=NNC(=S)N1CCCCCC1)c1ccccn1 | biofilm formation, XTT | SC5314 | 24 h, 37 °C | IC50 | 1.24 µM |
| CC[C@H](C)[C@H](NC(=O)[C@H](CCCCN)NC(=O)[C@H](CCCCN)NC(=O)[C@H](CC(C)C)NC(=O)[C@@H](NC(=O)[C@H](CCCCN)NC(=O)[C@H](C)NC(=O)[C@H](C)NC(=O)[C@@H](NC(=O)CNC(=O)[C@H](C)NC(=O)[C@@H](NC(=O)[C@@H](NC(=O)[C@@H]1CCCN1C(=O)[C@H](Cc1ccccc1)NC(=O)[C@@H](N)Cc1ccccc1)[C@@H](C)CC)C(C)C)C(C)C)C(C)C)C(=O)N[C@@H](Cc1ccccc1)C(=O)N[C@H]1CSSC[C@@H](C(=O)O)NC(=O)[C@H](CCCCN)NC(=O)[C@H](CCCCN)NC(=O)[C@H](CO)NC(=O)[C@H]([C@@H](C)CC)NC(=O)[C@H]([C@@H](C)O)NC1=O | – | 10231 | 18 h, 37 °C | MBC | > 128 µM |
| CC[C@H](C)[C@H](NC(=O)[C@H](CCCCN)NC(=O)[C@H](CCCCN)NC(=O)[C@@H](NC(=O)[C@@H](NC(=O)[C@H](CC(=O)O)NC(=O)[C@H](Cc1ccccc1)NC(=O)[C@H](CC(C)C)NC(=O)CN)[C@@H](C)CC)[C@@H](C)CC)C(=O)N[C@@H](C)C(=O)N[C@@H](CCC(=O)O)C(=O)N[C@@H](CO)C(=O)N[C@@H](Cc1ccccc1)C(N)=O | broth microdilution, XTT | SC5314 | 48 h, pH 7.4, 37 °C, over 90% growth inhibition, RPMI | MIC | 32 µg/mL |
| CC[C@H](C)C[C@H](C)CCCCCCCCC(=O)N[C@H]1C[C@@H](O)[C@@H](NCCN)NC(=O)[C@@H]2[C@@H](O)CCN2C(=O)[C@H]([C@H](O)CCN)NC(=O)[C@H]([C@H](O)[C@@H](O)c2ccc(O)cc2)NC(=O)[C@@H]2C[C@@H](O)CN2C(=O)[C@H]([C@@H](C)O)NC1=O | – | ATCC 90028, RPMI 1640, 0.165 M MOPS | 24 h, 35 °C, 100% inhibition endpoint | MIC | 0.2 µg/mL |
| O=C(NCc1ccc2c(c1)OCO2)c1ncc(Br)cc1F | microbial growth | ATCC10231 | 72 h | MIC | 100 µM |
| CCCCCCCCCCCCCCC(O)C[N+](C)(CCO)CCO (centres unmarked) | biofilm formation, XTT | SC5314 | 24 h, 37 °C | IC50 | ~9.55 µM |
| CC[C@H](C)[C@H](NC(=O)[C@H](CCCCN)NC(=O)[C@H](CCCCN)NC(=O)[C@H](CC(C)C)NC(=O)[C@@H](NC(=O)[C@H](CCCCN)NC(=O)[C@H](C)NC(=O)[C@H](C)NC(=O)[C@@H](NC(=O)CNC(=O)[C@H](C)NC(=O)[C@@H](NC(=O)[C@H](CCCCN)NC(=O)[C@@H]1CCCN1C(=O)[C@H](Cc1ccccc1)NC(=O)[C@@H](N)Cc1ccccc1)C(C)C)C(C)C)C(C)C)C(=O)N[C@@H](Cc1ccccc1)C(=O)N[C@H]1CSSC[C@@H](C(=O)O)NC(=O)[C@H](CCCCN)NC(=O)[C@H](CCCCN)NC(=O)[C@H](CO)NC(=O)[C@H]([C@@H](C)CC)NC(=O)[C@H]([C@@H](C)O)NC1=O | – | 10231 | 18 h, 37 °C | MBC | > 128 µM |
| c1cnc2c(c1)ccc1cccnc12 | biofilm formation, XTT | SC5314 | 24 h, 37 °C | IC50 | 3.35 µM |
| CC[C@H](C)[C@H](NC(=O)[C@H](CO)NC(=O)[C@@H](NC(=O)[C@H](C)NC(=O)[C@H](CCC(N)=O)NC(=O)CNC(=O)[C@@H](NC(=O)[C@@H](NC(=O)CNC(=O)[C@@H](NC(=O)[C@H](C)NC(=O)[C@@H]1CCCN1C(=O)CNC(=O)[C@H](C)NC(=O)[C@H](CCCCN)NC(=O)[C@@H](NC(=O)[C@@H](NC(=O)CNC(=O)[C@H](CC(=O)O)NC(=O)[C@H](CCCNC(=N)N)NC(=O)[C@@H](NC(=O)[C@H](CCCCN)NC(=O)[C@H](CCCNC(=N)N)NC(=O)CNC(=O)[C@@H](NC(=O)[C@H](CCCCN)NC(=O)[C@H](CCC(=O)O)NC(=O)[C@@H](NC(=O)[C@H](CCCCN)NC(=O)[C@H](CCCCN)NC(=O)[C@H](CC(C)C)NC(=O)[C@H](Cc1ccccc1)NC(=O)[C@H](CCCCN)NC(=O)[C@H](Cc1c[nH]c2ccccc12)NC(=O)[C@@H](N)CCCNC(=N)N)[C@@H](C)CC)C(C)C)C(C)C)C(C)C)[C@@H](C)CC)C(C)C)C(C)C)C(C)C)[C@@H](C)O)C(=O)N[C@@H](Cc1ccc(O)cc1)C(=O)N[C@@H](CCCCN)C(N)=O | broth microdilution | ATCC 90028 | 20 h, 37 °C | MIC | 72.5 ± 35.2 µg/mL |

A few entries again:
| Compound | assay | system | conditions | endpoint | result |
| --- | --- | --- | --- | --- | --- |
| CC[C@H](C)[C@H](NC(=O)[C@H](CCCCN)NC(=O)[C@H](CCCCN)NC(=O)[C@H](CC(C)C)NC(=O)[C@@H](NC(=O)[C@H](CCCCN)NC(=O)[C@H](C)NC(=O)[C@H](C)NC(=O)[C@@H](NC(=O)CNC(=O)[C@H](C)NC(=O)[C@@H](NC(=O)[C@@H](NC(=O)[C@@H]1CCCN1C(=O)[C@H](Cc1ccccc1)NC(=O)[C@@H](N)Cc1ccccc1)[C@@H](C)CC)C(C)C)C(C)C)C(C)C)C(=O)N[C@@H](Cc1ccccc1)C(=O)N[C@H]1CSSC[C@@H](C(=O)O)NC(=O)[C@H](CCCCN)NC(=O)[C@H](CCCCN)NC(=O)[C@H](CO)NC(=O)[C@H]([C@@H](C)CC)NC(=O)[C@H]([C@@H](C)O)NC1=O | – | 10231 | 18 h, 37 °C | MBC | > 128 µM |
| CC[C@H](C)[C@H](NC(=O)[C@H](CCCCN)NC(=O)[C@H](CCCCN)NC(=O)[C@@H](NC(=O)[C@@H](NC(=O)[C@H](CC(=O)O)NC(=O)[C@H](Cc1ccccc1)NC(=O)[C@H](CC(C)C)NC(=O)CN)[C@@H](C)CC)[C@@H](C)CC)C(=O)N[C@@H](C)C(=O)N[C@@H](CCC(=O)O)C(=O)N[C@@H](CO)C(=O)N[C@@H](Cc1ccccc1)C(N)=O | broth microdilution, XTT | SC5314 | 48 h, pH 7.4, 37 °C, over 90% growth inhibition, RPMI | MIC | 32 µg/mL |
